# Results collected from several papers.
# Compare with care: the assays were run in different laboratories. Numbers after ± are the reported error.
Structure (SMILES),assay,test system,setting,endpoint,result
CC[C@H](C)[C@H](NC(=O)[C@@H](NC(=O)[C@H](CCC(N)=O)NC(=O)[C@@H](N)CO)C(C)C)C(=O)N[C@@H](CO)C(=O)N[C@@H](CC(N)=O)C(=O)N1CCC[C@H]1C(=O)N[C@@H](Cc1ccc(O)cc1)C(=O)N[C@@H](Cc1ccc(O)cc1)C(=O)N1CCC[C@H]1C(=O)N[C@@H](Cc1ccccc1)C(=O)N[C@@H](Cc1ccc(O)cc1)C(=O)N[C@@H](Cc1ccc(O)cc1)C(=O)N[C@@H](CO)C(=O)O,cytotoxicity,human cells,2 (unit not given),CC50,> 100 µM
C[C@H](NC(C)(C)C)C(=O)c1cccc(Cl)c1,,human plasma,"500 nM, 37 °C",chiral inversion rate constant,0.54 h⁻¹
CCCCCc1cc(OC(=O)C(NC(=O)CCC(=O)O)C(C)C)c2c(c1)OC(C)(C)C1CCC(C)=CC21 (stereo not shown),,isolated rabbit cornea,"3 h, pH 7.4, 34 °C, donor polysorbate sample B 0.05%",Papp,4.1 ± 0.2 ×10⁻⁶ cm/s
O=C(/C=C/c1ccc(O)c2oc(-c3ccc(O)c(O)c3)cc12)O[C@H](Cc1ccc(O)c(O)c1)C(=O)O,,human,"dose not given, 48 (unit not given)",CC50,> 100 µM
CCCCCc1cc(O)c2c(c1)OC(C)(C)C1CCC(C)=CC21 (stereo not shown),,isolated rabbit cornea,"3 h, pH 7.4, 34 °C, donor 2.5% HPβCD",Papp,5.6 ×10⁻⁶ cm/s
COc1ccc(-n2cc(C(=O)N3C[C@]4(OC(=O)c5ccccc5NC(C)=O)CC[C@H](OC)[C@@]56[C@@H]4C[C@@H]([C@@H]35)[C@@]3(O)C[C@H](OC)[C@H]4C[C@@H]6[C@]3(O)[C@H]4OC)nn2)cc1,,"Sprague-Dawley rat, plasma","intravenous, 2 mg/kg",C0,140 ng/mL
CN[C@@H]1[C@H](O)[C@H](NC)[C@H]2O[C@]3(O)[C@H](O[C@@H]2[C@H]1O)O[C@H](C)C[C@H]3NC(=O)Cc1ccc(Cl)cn1,metabolic stability,"rat, liver microsomes",90 min,compound remaining,88%
N[C@]1(c2ccccc2Cl)CCC[C@H](O)C1=O,,"Wistar rat, plasma","oral, 20 mg/kg",Cmax,4710 ± 1220 ng/mL
CCC(=C(c1ccc(Cl)cc1)c1ccc(OCCN2CCOCC2)cc1)c1ccc(OC)cc1,,human,,CC50,18.6 µg/mL
C#CCCCNCCNc1ccnc2cc(Cl)ccc12,,monkey cells,,CC50,89 ± 0.3 µM
O=C(Cc1cccs1)N[C@@H]1C(=O)N2C(C(=O)O)=C(CSc3cccc[n+]3[O-])CS[C@H]12,,human liver microsomes,0.5 µM,metabolic stability,stable
CN[C@@H]1[C@H](O)[C@H](NC)[C@H]2O[C@]3(O)[C@H](O[C@@H]2[C@H]1O)O[C@H](C)C[C@H]3NC(=O)Cc1ccc(F)cn1,metabolic stability,"rat, liver microsomes",90 min,compound remaining,102%
CC1=C[C@H]2c3c(O)cc(CCc4ccccc4)cc3OC(C)(C)[C@H]2CC1,LC-MS/MS,"BALB/c mouse, brain","intraperitoneal, 50 mg/kg, 1 h",brain concentration,~1400 nM

# A few entries again:
Structure (SMILES),assay,test system,setting,endpoint,result
CN[C@@H]1[C@H](O)[C@H](NC)[C@H]2O[C@]3(O)[C@H](O[C@@H]2[C@H]1O)O[C@H](C)C[C@H]3NC(=O)Cc1ccc(Cl)cn1,metabolic stability,"rat, liver microsomes",90 min,compound remaining,88%
N[C@]1(c2ccccc2Cl)CCC[C@H](O)C1=O,,"Wistar rat, plasma","oral, 20 mg/kg",Cmax,4710 ± 1220 ng/mL
